Measured values gathered from unrelated publications.
Lines come from different studies, so protocols differ. “And” joins repeats or separate records; there may be more than shown. ± marks the error that the study gave.
Ribonuclease H1: Ribonuclease H1 (Homo sapiens, UniProt O60930)
Sequence of UniProt O60930 (whole entry, looked up): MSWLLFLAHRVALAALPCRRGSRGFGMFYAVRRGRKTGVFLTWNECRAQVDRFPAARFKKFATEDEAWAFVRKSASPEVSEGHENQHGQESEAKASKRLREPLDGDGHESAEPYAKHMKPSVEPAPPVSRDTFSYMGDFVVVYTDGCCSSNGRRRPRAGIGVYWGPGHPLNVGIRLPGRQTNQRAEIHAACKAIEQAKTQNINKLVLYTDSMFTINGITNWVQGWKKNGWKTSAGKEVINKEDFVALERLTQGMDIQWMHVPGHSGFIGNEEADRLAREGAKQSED
Vesicular acetylcholine transporter: Vesicular acetylcholine transporter (Rattus norvegicus, UniProt Q62666)
Sequence of UniProt Q62666 (whole entry, looked up): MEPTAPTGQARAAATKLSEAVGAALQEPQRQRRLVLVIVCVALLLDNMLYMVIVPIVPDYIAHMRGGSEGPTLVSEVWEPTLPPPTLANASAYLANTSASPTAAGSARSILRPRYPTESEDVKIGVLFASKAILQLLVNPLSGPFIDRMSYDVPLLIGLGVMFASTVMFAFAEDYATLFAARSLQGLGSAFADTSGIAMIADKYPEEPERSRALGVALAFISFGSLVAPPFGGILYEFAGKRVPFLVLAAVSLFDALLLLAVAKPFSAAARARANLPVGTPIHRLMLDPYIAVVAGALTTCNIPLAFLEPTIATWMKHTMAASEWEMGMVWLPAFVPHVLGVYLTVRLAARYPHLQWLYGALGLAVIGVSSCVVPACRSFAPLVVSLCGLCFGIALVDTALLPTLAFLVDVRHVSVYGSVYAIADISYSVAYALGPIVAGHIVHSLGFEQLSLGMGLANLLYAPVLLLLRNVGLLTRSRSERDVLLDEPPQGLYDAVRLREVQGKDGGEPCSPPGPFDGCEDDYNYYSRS
Sequence of UniProt Q13547 (whole entry, looked up): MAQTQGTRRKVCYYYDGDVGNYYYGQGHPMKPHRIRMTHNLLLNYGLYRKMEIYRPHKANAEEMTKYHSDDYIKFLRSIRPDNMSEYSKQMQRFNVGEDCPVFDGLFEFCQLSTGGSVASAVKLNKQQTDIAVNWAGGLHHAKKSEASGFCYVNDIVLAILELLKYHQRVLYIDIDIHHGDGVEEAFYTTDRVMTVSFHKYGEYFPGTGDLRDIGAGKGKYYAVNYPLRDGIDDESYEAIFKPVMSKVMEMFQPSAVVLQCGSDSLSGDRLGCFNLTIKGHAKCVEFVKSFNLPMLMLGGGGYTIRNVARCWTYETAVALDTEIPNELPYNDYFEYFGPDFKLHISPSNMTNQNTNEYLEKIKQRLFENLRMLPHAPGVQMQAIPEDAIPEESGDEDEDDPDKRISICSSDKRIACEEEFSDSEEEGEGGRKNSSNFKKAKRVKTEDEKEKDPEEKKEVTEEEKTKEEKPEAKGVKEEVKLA
Sequence of UniProt P10144 (whole entry, looked up): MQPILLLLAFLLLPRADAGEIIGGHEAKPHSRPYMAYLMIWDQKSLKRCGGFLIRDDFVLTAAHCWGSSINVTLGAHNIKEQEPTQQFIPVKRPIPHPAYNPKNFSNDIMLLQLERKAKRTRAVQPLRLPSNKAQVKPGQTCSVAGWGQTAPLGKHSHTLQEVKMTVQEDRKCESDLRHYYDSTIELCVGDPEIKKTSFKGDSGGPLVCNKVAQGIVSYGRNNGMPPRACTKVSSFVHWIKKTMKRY
Sequence of UniProt P08172 (whole entry, looked up): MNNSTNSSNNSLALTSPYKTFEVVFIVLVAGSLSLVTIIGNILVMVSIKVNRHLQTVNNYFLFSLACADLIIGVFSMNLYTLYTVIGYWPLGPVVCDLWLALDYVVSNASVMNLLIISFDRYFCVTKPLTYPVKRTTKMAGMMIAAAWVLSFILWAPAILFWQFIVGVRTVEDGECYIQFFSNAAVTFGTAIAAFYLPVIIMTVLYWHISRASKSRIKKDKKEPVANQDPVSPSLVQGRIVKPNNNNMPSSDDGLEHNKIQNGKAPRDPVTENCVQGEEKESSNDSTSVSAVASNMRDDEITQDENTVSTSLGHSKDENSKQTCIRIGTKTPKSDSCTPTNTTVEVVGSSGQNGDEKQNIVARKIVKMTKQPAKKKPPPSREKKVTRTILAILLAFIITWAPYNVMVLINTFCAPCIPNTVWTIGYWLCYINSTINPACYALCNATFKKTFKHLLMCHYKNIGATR
Sequence of UniProt P28335 (whole entry, looked up): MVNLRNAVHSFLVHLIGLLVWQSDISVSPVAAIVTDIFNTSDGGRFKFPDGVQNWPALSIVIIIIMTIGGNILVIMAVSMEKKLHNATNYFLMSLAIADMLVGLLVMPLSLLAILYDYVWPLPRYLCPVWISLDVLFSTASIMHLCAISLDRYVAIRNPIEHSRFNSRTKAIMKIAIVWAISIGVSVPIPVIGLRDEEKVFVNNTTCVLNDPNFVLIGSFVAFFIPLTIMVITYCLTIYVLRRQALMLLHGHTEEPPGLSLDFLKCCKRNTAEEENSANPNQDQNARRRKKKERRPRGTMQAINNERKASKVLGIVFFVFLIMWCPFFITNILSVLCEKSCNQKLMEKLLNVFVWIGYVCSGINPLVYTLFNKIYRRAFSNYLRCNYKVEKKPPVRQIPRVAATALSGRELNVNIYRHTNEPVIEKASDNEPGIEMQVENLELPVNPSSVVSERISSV
Sequence of UniProt Q5BJF2 (whole entry, looked up): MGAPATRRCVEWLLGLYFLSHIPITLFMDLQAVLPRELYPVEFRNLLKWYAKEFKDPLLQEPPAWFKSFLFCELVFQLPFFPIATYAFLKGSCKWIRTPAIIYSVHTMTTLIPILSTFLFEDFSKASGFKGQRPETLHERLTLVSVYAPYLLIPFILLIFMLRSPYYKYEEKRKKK

Compound	target	test	system	conditions	Ki
Cn1ccc2c(N3CCN(CCCCOc4ccc5c(c4)NC(=O)CC5)CC3)cccc21	CHRM2 (Homo sapiens, UniProt P08172)	ligand displacement, radioligand	–	–	0.195 µM
CC[C@H](C)[C@H](NC(=O)Cc1cccc(CNC(=O)C[C@H](NC(=O)C[C@H](NC(=O)CN2CCN(CC(=O)O)CCN(CC(=O)O)CCN(CC(=O)O)CC2)C(=O)O)C(=O)O)c1)C(=O)N[C@H]1CCc2cccc3c2N(C1=O)[C@H](C(=O)NCc1cn[nH]n1)C3	Granzyme B (GZMB, Homo sapiens, UniProt P10144)	enzyme activity, inhibitor, fluorescence	–	–	0.0307 µM
CC(=O)N[C@@H](CC(C)C)C(=O)N[C@@H](CC(C)C)C(=O)N[C@@H](CC(C)C)C(=O)N[C@@H](CC(C)C)C(=O)N[C@@H](CC(C)C)C(=O)N[C@@H](CCCNC(=N)N)C(=O)N[C@H](C(=O)N[C@@H](CCCCN)C(=O)N[C@@H](CCCNC(=N)N)C(N)=O)C(C)C	proprotein convertase 1/3 (human)	inhibitor	–	–	0.37 ± 0.08 µM
CCc1c(Cl)cccc1N1CCN(C[C@@H](F)CCNC(=O)c2cc3ccccc3[nH]2)CC1	HTR2C (Homo sapiens, UniProt P28335)	ligand displacement, radioligand	–	cell membranes	1.21 µM
CC(=O)c1cc(O)c(=O)c(O)cc1C	Ribonuclease H1	enzyme activity, inhibitor, FRET heteroduplex cleavage	–	catalytic domain, free enzyme, added: 18-mer RNA/DNA substrate	64.6 µM
CCCCN1CCC(COC(=O)c2ccc(N)c(OCF)c2)CC1 [fluorine-18 labelled]	TMEM97 (Homo sapiens, UniProt Q5BJF2)	NIMH-PDSP radioligand binding	–	–	0.043 µM
CC(=O)N[C@@H](CCCNC(=N)N)C(=O)N[C@H](C(=O)N[C@@H](CCCCN)C(=O)N[C@@H](CCCNC(=N)N)C(N)=O)C(C)C	proprotein convertase 1/3 (human)	inhibitor	–	–	10 ± 0.8 µM
Cc1ccc(C2CCN(C3Cc4ccccc4CC3O)CC2)cc1 (racemic)	Vesicular acetylcholine transporter	radioligand binding	PC12 expressing VAChT	added: [3H]vesamicol	0.0053 ± 0.0003 µM
Cc1cc(O)c(=O)c(O)cc1C(=O)N1CCN(C(=O)c2cccc3ccccc23)CC1	Ribonuclease H1	enzyme activity, inhibitor, FRET heteroduplex cleavage	–	catalytic domain, free enzyme, added: 18-mer RNA/DNA substrate	3 µM and 5.3 µM
CC(=O)N[C@@H](CC(C)C)C(=O)N[C@@H](CC(C)C)C(=O)N[C@@H](CC(C)C)C(=O)N[C@@H](CC(C)C)C(=O)N[C@@H](CCCNC(=N)N)C(=O)N[C@H](C(=O)N[C@@H](CCCCN)C(=O)N[C@@H](CCCNC(=N)N)C(N)=O)C(C)C	proprotein convertase 1/3 (human)	inhibitor	–	–	0.114 ± 0.007 µM
CC(C)(C)n1nc(-c2ccc(Cl)cc2)c2c(N)ncnc21	SRC (Gallus gallus, UniProt P00523, G530I/P529E/Q528E)	enzyme activity, inhibitor, radiometric	–	–	0.087 µM
OC1Cc2ccccc2CC1N1CCC(c2ccc(Br)cc2)CC1 (racemic)	Vesicular acetylcholine transporter	radioligand binding	PC12 expressing VAChT	added: [3H]vesamicol	0.0047 ± 0.0003 µM
O=C(NO)c1cncc(OS(=O)(=O)Oc2ccc(Oc3ccccc3)cc2)c1	HDAC1 (Homo sapiens, UniProt Q13547)	enzyme activity, inhibitor, fluorescence	–	–	1.33 µM

A few entries again:
Compound	target	test	system	conditions	Ki
CC(=O)c1cc(O)c(=O)c(O)cc1C	Ribonuclease H1	enzyme activity, inhibitor, FRET heteroduplex cleavage	–	catalytic domain, free enzyme, added: 18-mer RNA/DNA substrate	64.6 µM
CC(=O)N[C@@H](CCCNC(=N)N)C(=O)N[C@H](C(=O)N[C@@H](CCCCN)C(=O)N[C@@H](CCCNC(=N)N)C(N)=O)C(C)C	proprotein convertase 1/3 (human)	inhibitor	–	–	10 ± 0.8 µM
